Measured values pooled from the literature.
Parts stem from different laboratories: compare values within a part only. Several values in a cell are separate wells, animals, samples, runs or records.
UniProt P51812, sequence (whole entry, looked up): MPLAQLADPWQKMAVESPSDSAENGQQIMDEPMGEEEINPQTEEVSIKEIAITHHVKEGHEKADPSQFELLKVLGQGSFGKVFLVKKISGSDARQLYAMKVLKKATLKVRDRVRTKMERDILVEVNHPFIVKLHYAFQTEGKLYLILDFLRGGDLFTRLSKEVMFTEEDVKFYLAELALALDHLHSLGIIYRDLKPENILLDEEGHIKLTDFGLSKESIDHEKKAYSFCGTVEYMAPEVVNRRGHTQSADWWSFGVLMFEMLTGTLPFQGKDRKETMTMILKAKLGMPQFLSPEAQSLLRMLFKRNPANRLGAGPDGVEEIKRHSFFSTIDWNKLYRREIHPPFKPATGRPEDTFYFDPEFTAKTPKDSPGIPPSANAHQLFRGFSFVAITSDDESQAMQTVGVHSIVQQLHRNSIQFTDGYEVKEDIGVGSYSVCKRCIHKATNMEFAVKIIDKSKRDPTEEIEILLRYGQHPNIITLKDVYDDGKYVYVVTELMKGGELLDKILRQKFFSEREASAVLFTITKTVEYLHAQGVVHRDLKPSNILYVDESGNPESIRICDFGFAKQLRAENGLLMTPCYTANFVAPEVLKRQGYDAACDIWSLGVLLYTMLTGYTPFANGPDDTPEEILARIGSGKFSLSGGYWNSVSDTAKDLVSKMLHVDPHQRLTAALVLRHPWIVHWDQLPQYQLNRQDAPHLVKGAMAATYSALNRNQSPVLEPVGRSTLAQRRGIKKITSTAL
UniProt Q7KZI7, sequence (whole entry, looked up): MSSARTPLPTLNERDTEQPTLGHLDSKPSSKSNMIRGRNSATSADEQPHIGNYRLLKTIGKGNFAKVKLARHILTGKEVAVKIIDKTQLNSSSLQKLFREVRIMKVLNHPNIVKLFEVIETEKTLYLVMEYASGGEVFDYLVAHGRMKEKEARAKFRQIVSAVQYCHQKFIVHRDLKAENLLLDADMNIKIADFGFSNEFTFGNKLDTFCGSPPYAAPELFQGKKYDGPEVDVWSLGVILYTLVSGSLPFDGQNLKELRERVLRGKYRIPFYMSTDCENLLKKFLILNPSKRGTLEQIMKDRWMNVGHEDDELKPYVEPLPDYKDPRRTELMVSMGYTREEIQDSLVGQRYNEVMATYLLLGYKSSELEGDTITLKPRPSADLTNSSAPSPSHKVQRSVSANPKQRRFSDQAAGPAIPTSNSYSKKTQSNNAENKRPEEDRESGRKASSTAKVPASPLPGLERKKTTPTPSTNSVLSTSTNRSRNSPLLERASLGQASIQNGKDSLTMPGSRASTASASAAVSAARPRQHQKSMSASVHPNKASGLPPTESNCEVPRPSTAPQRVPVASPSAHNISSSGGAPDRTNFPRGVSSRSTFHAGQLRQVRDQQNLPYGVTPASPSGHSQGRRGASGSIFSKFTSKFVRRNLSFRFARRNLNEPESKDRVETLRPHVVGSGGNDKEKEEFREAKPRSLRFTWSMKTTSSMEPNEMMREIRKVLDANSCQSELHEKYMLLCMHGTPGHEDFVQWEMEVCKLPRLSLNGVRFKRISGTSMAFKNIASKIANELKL
UniProt O95382, sequence (whole entry, looked up): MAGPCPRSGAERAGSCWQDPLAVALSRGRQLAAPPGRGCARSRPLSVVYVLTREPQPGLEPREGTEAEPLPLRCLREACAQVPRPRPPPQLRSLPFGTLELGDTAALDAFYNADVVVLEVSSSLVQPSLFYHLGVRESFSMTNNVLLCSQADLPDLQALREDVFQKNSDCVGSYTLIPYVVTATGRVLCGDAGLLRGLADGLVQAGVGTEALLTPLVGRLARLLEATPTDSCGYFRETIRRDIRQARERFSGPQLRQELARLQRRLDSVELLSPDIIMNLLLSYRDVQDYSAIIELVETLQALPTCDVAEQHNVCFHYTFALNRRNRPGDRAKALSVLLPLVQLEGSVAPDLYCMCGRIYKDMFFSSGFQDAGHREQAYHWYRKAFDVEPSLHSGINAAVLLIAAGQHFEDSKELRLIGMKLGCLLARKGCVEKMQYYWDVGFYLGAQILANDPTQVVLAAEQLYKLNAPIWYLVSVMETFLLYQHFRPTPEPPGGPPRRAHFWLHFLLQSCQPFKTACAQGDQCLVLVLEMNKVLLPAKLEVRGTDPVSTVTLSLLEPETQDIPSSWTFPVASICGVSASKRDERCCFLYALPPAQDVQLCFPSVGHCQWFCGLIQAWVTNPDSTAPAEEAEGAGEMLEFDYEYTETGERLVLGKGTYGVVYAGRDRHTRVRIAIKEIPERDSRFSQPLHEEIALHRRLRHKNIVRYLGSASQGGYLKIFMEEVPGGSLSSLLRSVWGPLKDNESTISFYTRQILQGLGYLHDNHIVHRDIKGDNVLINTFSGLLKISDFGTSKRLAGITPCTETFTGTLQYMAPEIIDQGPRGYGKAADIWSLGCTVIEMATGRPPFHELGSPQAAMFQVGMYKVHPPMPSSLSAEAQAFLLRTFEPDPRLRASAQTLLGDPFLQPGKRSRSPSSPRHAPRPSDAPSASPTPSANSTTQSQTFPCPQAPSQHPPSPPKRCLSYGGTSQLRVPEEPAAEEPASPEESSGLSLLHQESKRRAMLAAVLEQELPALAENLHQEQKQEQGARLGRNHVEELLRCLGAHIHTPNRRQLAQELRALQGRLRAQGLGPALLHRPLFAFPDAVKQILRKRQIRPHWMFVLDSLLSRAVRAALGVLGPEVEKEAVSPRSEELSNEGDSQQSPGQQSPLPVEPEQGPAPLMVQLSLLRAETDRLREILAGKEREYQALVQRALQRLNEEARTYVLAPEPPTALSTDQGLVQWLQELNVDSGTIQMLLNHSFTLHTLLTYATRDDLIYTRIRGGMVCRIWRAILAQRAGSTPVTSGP
UniProt Q14012, sequence (whole entry, looked up): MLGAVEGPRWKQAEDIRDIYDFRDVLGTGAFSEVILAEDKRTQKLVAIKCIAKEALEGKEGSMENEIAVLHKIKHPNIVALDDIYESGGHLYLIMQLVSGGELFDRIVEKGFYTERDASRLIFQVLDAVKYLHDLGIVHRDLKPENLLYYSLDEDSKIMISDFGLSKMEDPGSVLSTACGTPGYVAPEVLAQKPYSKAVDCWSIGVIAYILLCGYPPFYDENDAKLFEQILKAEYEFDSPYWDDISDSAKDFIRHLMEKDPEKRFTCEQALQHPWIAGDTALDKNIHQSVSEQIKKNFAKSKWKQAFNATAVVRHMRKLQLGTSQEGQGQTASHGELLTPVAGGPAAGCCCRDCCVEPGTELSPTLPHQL

Block 1
Host: human
Matrix: microsomes or S9
Concentration: 2 µM
Time: 0.5 h
| SMILES | remaining compound [%] |
| --- | --- |
| CCS(=O)(=O)CC(=O)N1CC(C)(C)N(C)c2cc(Br)ccc21 | 5.1 |
| CCc1nc(-c2cccc(-c3noc(-c4sc(C)nc4C)n3)c2)cs1 | 83.1 |
| N#Cc1cc(F)ccc1S(=O)(=O)N1CCCO1 | 93.3 |
| CN(C(=O)c1ccc(C(=O)c2ccccc2)cc1)c1ccccc1 | 0.514 |

Block 2
Structure (SMILES): COCCOc1nc(-c2ccc(Cl)nc2)nc2c1CN(C(=O)c1ncn3ccccc13)CC2
Observed: cell-free assay
Technique: competition with immobilised ligand
Concentration: 0.1 µM
| target | remaining binding [%] |
| --- | --- |
| STK11 (Homo sapiens, UniProt Q15831) | 100 |
| PRKG1 (Homo sapiens, UniProt Q13976) | 87 |
| NEK7 (Homo sapiens, UniProt Q8TDX7) | 100 |
| EGFR (Homo sapiens, UniProt P00533, T790M) | 61 |
| EGFR (Homo sapiens, UniProt P00533, A750P/del747-749) | 85 |
| FLT3 (Homo sapiens, UniProt P36888) | 85 |
| FGFR1 (Homo sapiens, UniProt P11362) | 100 |
| MARK2 (Homo sapiens, UniProt Q7KZI7) | 100 |
| MAP3K6 (Homo sapiens, UniProt O95382) | 100 |
| RIPK1 (Homo sapiens, UniProt Q13546) | 100 |
| CSNK1A1 (Homo sapiens, UniProt P48729) | 98 |
| Ribosomal protein S6 kinase alpha-3, C-terminal kinase domain (RPS6KA3, Homo sapiens, UniProt P51812) | 82 |
| Ribosomal protein S6 kinase alpha-1, C-terminal kinase domain (RPS6KA1, Homo sapiens, UniProt Q15418) | 100 |
| CSNK1A1L (Homo sapiens, UniProt Q8N752) | 100 |
| RIOK1 (Homo sapiens, UniProt Q9BRS2) | 93 |
| EGFR (Homo sapiens, UniProt P00533, G719S) | 97 |
| RPS6KB1 (Homo sapiens, UniProt P23443) | 100 |
| MAST1 (Homo sapiens, UniProt Q9Y2H9) | 100 |
| CAMK1 (Homo sapiens, UniProt Q14012) | 100 |
| NEK9 (Homo sapiens, UniProt Q8TD19) | 100 |

Block 3
Target: RING finger protein unkempt homolog, zinc fingers 1-6, GST-SBP tag (UNK, Homo sapiens, UniProt Q9C0B0, residues 30-357)
Technique: RNA Bind-n-Seq
Form: RNA
Matrix: in vitro
Concentration: not given
Setting: RNA with constant flanks, human and mouse sites, ends assumed
Relative to: input RNA pool
Direction: higher = stronger binding
All sequences stand within: GGGAGUUCUACAGUCCGACGAUC … CAACAGAGGAUUGAGCAUCA
Construct (chain): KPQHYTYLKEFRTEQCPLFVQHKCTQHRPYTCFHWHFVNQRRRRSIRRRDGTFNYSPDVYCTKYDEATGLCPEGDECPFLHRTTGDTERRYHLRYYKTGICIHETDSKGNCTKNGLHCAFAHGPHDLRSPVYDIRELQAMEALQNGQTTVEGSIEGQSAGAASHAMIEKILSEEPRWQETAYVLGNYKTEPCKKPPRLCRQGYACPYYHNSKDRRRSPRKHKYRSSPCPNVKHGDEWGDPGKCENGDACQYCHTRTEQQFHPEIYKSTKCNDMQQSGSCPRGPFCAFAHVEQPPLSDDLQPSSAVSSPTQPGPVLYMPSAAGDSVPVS
| Sequence | bound/input enrichment |
| --- | --- |
| CGUGCCCCAGCUGCCCGACGCAGCCCUGGGCCAGGCCCCAGCCCAACACCCCGUAGUCCAAAACAUGCAAGGCCGGCAGAGCUGAAGCUUGCACCUUUGACAAGGGUACUCACACCACCC | 0.339 ratio |
| UUUCCACGAGGGGAUGAAAUAUUGGAGCUGUUGUAGAAGAAAAACUUCAGAUUUUAAUACAUUCUUAGCCCAAGAGGGCUGUACAAGAGGGAAGCAUGUAUGGACUAAAAAAGAUGCAGG | 0.395 ratio |
| GCGGAGCUUCUGAAAAAUGCAGAUGAGCUAGUCAAACAGAAAAUUCAUCCAACAUCAGUUAUUAGUGGCUAUCGUCUUGCCUGCAAGGAAGCGGUGCGUUAUAUCAAUGAGAACCUGAUU | 0.2 ratio |
| CAGCCGCUCCUGGUAUCAGAGCUGCUUUCCAGAGGGCAGCACAGCCAGGGCCGGGUGUCUUUAGGGAUCAGUUUUUCCAAGACUCCAGAAGGUGCCAGGUUCUCCCCUUGAGCUCCUGCU | 0.0631 ratio |
| GUCACAAGACCAAUAUUUGGUAUACUGGGCACAAUCCAUCUGGUGGCAGGUAAUUAUCUUAUAGUCAUUACCAAAAAGAUAAAAGUAGGUGAAUUUUUCAGUCAUGUAGUCUGGAAAGCA | 1.54 ratio |
| UAUGAAUUUGACAAGUUUUGGCUUGAGGAAGAGCCAGAAAGCAUUAUGUACUUCAACUUGUACAGAGAGAAGUUUCACGAGCGGAUCAAAGGACUCUUGAUGGAUUGCAAUGCUGUGCUC | 0.181 ratio |
| AGUCAUCUAGAAAGAAUCUGGGCAACUGGUAACCAUGAGCGAAUGGAUGAAGAAAAGCCCCUUAGAAUGGGAAGAUUACGUUUAUAAAGAAGUGAGAGUGAUAGCCUGUGAGAAGGAGUA | 3.37 ratio |
| CAAACAUUACAAGCCUAAAAAGAGGUUUACCAGCACUAAGUGUUUUGCCUUCAUGGAGAUGGAUGAAAUUAAACCUGGGCCAAUCGUAAUAGAACUAUACAAGAAACCCACUGACUUUAA | 0.25 ratio |

Block 4
Target: Signal transducer and activator of transcription 1-alpha/beta, full length (STAT1, Homo sapiens, UniProt P42224, residues 1-750)
UniProt P42224, sequence (whole entry, looked up): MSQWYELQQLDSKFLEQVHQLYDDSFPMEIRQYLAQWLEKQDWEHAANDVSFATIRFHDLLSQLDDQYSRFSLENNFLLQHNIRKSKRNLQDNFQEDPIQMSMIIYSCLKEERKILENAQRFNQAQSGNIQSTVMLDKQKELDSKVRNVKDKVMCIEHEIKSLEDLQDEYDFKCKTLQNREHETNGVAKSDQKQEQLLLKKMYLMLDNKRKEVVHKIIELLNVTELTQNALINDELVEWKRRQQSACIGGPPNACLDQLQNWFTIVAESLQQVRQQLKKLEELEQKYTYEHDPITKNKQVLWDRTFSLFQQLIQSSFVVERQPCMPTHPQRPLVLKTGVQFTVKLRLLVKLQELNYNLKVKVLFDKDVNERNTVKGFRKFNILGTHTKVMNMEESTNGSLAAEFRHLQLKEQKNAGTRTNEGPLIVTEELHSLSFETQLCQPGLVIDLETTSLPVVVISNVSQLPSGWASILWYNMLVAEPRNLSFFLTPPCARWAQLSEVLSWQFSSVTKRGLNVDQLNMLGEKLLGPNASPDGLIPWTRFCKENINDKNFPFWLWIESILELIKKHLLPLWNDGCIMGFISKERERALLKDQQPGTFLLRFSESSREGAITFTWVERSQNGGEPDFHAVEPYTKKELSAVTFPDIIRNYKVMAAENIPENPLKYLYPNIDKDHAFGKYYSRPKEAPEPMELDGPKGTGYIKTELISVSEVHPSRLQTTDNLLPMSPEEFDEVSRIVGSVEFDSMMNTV
Technique: protein-binding microarray
Form: hairpin DNA
Matrix: in vitro
Concentration: not given
Setting: whole hairpin DNA, median over replicate spots
Relative to: not given
Direction: higher = stronger binding
All sequences stand within: GAGGCC … GGCCTCACACTCTTTCCCTACACG
| Sequence | median fluorescence |
| --- | --- |
| TCTCCCGGAAGCCTCCTGGCTTCCGGGAGA | 1460 a.u. |
| CATCCCGGAAGCCTCCTGGCTTCCGGGATG (5mC at 7) | 1230 a.u. |
| TTTCCCGGGAGCCTCCTGGCTCCCGGGAAA | 948 a.u. |
| CGTCCCGGAAGCCTCCTGGCTTCCGGGACG (5mC at 7) | 1340 a.u. |
| TTTGCCGGAAGCCTCCTGGCTTCCGGCAAA (5mC at 33) | 1270 a.u. |
| TTGCCCGGAAGCCTCCTGGCTTCCGGGCAA (5mC at 34) | 2680 a.u. |
| CGTCCCGGAAGCCTCCTGGCTTCCGGGACG (5mC at 7 35) | 1170 a.u. |
| TCCCCCGGAAGCCTCCTGGCTTCCGGGGGA (5mC at 8) | 942 a.u. |

Block 5
Cell line: mouse MPNST tumor cells
Technique: high-content immunofluorescence imaging
Measured: nuclear SOX9
Concentration: 10 µM
Time: 12 h
Setting: mean of 2 replicates
Relative to: DMSO control
Direction: higher = more nuclear SOX9
| SMILES | nuclear SOX9 intensity |
| --- | --- |
| CCOC(=O)Nc1ccc2c(c1)N(C(=O)CN(CC)CC)c1ccccc1CC2 | 81.3 % of DMSO |
| N[C@@H](CC(=O)N1CCn2c(nnc2C(F)(F)F)C1)Cc1cc(F)c(F)cc1F | 91.9 % of DMSO and 117 % of DMSO |
| COc1cc(N)c(Cl)cc1C(=O)OCCN1CCCCC1 | 93 % of DMSO |

For quick reference, copied from above (block 2):
| target | remaining binding [%] |
| --- | --- |
| MARK2 (Homo sapiens, UniProt Q7KZI7) | 100 |
| RPS6KB1 (Homo sapiens, UniProt P23443) | 100 |
| CSNK1A1L (Homo sapiens, UniProt Q8N752) | 100 |
| RIPK1 (Homo sapiens, UniProt Q13546) | 100 |
| EGFR (Homo sapiens, UniProt P00533, G719S) | 97 |
| NEK9 (Homo sapiens, UniProt Q8TD19) | 100 |
